Measured values of several laboratories.
A part holds a random share of what one study measured. Values joined by “and” are separate records of one study, mostly repeats; a detail may differ.
Sequence of UniProt P41595 (whole entry, looked up): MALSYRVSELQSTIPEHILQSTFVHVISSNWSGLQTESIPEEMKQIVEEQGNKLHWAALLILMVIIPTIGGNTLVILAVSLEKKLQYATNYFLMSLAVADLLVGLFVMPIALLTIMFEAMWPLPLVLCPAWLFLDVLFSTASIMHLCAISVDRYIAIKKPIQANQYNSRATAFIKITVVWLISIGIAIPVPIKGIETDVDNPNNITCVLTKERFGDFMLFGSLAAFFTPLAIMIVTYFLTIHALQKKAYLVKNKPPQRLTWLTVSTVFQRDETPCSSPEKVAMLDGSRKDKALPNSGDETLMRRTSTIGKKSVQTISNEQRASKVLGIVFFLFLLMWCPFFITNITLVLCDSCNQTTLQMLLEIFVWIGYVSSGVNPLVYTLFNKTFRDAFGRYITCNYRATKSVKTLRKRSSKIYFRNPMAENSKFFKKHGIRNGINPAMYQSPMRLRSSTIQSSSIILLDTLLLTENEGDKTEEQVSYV
Sequence of UniProt P42336 (whole entry, looked up): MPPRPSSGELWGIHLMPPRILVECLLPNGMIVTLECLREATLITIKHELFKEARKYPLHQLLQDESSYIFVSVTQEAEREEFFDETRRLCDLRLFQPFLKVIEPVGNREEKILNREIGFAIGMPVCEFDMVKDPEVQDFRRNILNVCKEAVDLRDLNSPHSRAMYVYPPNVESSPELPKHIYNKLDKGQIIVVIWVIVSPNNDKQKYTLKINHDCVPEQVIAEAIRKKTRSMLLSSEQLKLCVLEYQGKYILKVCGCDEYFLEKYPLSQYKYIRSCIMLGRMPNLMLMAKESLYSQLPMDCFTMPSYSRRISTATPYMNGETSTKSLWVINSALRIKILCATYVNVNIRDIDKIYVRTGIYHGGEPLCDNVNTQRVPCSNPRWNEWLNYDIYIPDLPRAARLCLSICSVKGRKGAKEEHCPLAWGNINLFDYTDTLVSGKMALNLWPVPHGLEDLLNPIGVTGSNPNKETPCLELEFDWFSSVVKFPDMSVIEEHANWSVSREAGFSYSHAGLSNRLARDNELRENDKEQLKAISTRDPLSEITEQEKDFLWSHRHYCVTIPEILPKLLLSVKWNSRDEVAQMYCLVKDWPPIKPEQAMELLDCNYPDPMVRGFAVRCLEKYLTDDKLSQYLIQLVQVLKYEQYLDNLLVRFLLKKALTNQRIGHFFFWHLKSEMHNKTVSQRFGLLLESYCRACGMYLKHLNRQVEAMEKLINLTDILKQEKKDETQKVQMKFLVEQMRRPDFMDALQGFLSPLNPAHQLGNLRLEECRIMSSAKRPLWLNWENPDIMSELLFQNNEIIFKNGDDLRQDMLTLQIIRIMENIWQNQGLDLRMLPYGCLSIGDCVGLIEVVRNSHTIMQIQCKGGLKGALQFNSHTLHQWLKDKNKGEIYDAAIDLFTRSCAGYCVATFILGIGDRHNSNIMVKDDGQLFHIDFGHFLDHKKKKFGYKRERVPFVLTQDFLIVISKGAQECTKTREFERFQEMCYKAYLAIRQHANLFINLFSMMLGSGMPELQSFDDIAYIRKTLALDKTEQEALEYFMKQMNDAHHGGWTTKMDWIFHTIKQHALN

Block 1 — read-out: RNA clamping; method: fluorescence polarization; concentration: concentration not given; notes: mean of two replicates; added: FAM-labelled poly r(AG)8 RNA
Target: Eukaryotic initiation factor 4A-I (EIF4A1, Homo sapiens, UniProt P60842)
Sequence of UniProt P60842 (whole entry, looked up): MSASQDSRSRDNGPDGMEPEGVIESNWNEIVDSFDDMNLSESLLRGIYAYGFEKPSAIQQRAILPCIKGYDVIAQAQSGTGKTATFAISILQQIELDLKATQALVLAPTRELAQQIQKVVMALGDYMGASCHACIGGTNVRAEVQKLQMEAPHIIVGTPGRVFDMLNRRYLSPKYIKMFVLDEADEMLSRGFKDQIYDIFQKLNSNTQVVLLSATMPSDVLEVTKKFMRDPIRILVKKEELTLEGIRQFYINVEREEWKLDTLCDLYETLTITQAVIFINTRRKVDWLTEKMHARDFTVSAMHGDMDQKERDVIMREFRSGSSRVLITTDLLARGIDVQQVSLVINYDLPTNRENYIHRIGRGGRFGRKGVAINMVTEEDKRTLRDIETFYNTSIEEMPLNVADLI
SMILES	fluorescence polarization change
COc1ccc([C@@]23Oc4cc(OC)c(Cl)c(OC)c4[C@]2(O)c2nc4n(c(=O)c2[C@H]3c2ccccc2)CCC4)cc1	21.8 mP
COc1ccc([C@]23Oc4cc(OC)cc(OC)c4[C@@]2(O)c2nc(-c4cccc(OC)c4)[nH]c(=O)c2[C@@H]3c2ccccc2)cc1	17.8 mP
COc1ccc([C@@]23Oc4cc(OC)cc(OC)c4[C@]2(O)[C@H](O)[C@H](C(=O)c2ccco2)[C@H]3c2ccccc2)cc1	29.4 mP and 38.7 mP
O=C1O[C@H]2[C@@H]1[C@H](c1ccccc1)[C@@]1(c3ccccc3)Oc3ccccc3[C@@]21O	7.2 mP
COC(=O)[C@@H]1[C@@H](c2ccccc2)[C@]2(c3ccc(OC)cc3)Oc3cc(OC)cc(OC)c3[C@@]23N2CCCCC2=N[C@@]13O	82.9 mP
COc1ccc([C@@]23Oc4cc(OC)cc(OC)c4[C@]2(O)[C@H](O)[C@H](C(=O)NCCCC(OC)OC)[C@H]3c2ccccc2)cc1	61.5 mP
COc1ccc([C@@]23Oc4cc(OC)cc(OC)c4[C@]2(O)[C@H](O)[C@H](C(=O)c2cc4ccccc4n2C)[C@H]3c2ccccc2)cc1	9.5 mP
COC(=O)[C@@H]1[C@@H](c2ccccc2)[C@]2(c3ccc(OC)cc3)Oc3cc(OC)cc(OC)c3[C@@]23N=C(c2ccccc2)N[C@@]13O	28.4 mP
COC(=O)[C@@H]1[C@@H](c2ccccc2)[C@]2(c3ccc(OC)cc3)Oc3cc(OC)cc(OC)c3[C@@]23NC(C2CCN(C(=O)OC(C)(C)C)CC2)=N[C@@]13O	39 mP
C#CCOc1cc(OC)c2c(c1)O[C@@]1(c3ccc(OC)cc3)[C@H](c3ccccc3)c3c(nc(-c4ccccc4)[nH]c3=O)[C@@]21O	3.5 mP

Block 2 — read-out: enzyme activity; mode: inhibitor; concentration: 0.5 µM; baseline: control
Target: Serine/threonine-protein kinase Nek11 (NEK11, Homo sapiens, UniProt Q8NG66)
Sequence of UniProt Q8NG66 (whole entry, looked up): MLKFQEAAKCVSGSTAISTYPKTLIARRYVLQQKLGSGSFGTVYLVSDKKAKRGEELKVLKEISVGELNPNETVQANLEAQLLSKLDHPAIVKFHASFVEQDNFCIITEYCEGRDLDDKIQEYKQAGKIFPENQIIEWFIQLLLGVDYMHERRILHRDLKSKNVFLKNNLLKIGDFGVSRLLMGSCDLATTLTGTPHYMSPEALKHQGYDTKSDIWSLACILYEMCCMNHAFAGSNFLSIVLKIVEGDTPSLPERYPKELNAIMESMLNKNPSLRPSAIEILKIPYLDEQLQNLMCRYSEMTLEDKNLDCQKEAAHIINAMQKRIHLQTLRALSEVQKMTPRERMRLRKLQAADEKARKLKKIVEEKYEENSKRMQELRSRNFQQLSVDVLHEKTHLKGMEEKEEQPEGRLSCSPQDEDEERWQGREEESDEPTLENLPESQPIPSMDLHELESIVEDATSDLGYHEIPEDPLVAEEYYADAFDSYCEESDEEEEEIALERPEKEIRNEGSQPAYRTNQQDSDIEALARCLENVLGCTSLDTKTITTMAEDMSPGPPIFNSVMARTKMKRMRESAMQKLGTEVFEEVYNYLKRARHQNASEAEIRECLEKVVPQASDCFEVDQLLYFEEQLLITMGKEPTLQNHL
Structure (SMILES)	remaining activity
CCc1[nH]c(-c2ccc(OC)cc2)nc1-c1ccncc1	77.4%
Cc1cncc2cccc(S(=O)(=O)N3CCCN(C(=O)CN)C[C@@H]3C)c12	84.2%
N#CC(=C(N)Sc1ccc(N)cc1)c1ccccc1C(F)(F)F	97.7%
Fc1ccc(-c2nc3n(c2-c2ccncc2)CCS3)cc1	71.4%
Cc1cc(Nc2nc(-c3ccccc3)nc3ccccc23)n[nH]1	105%
Nc1ncnc2c1cnn2-c1ccccc1	107%
O=S(=O)(NCCNC/C=C/c1ccc(Br)cc1)c1cccc2cnccc12	92.7%
CCCC(=O)Oc1ccc2[nH]c(C(=O)c3cc4ccccc4[nH]3)cc2c1	101%
CC#CC(=O)Nc1cc2c(Nc3ccc(F)c(Cl)c3)ncnc2cn1	86.6%
CC(C)(C)n1nc(Cc2cccc3ccccc23)c2c(N)ncnc21	99.3%
Oc1ccc(Nc2nc(-c3ccc(Cl)cc3)cs2)cc1	77.1%
CC[n+]1c(/C=C/N(C)c2ccccc2)n(-c2ccccc2)c2ccc(-c3nc4ccccc4s3)cc21	91.6%
CSc1nc(-c2ccnc(N[C@@H](C)c3ccccc3)c2)c(-c2ccc(F)cc2)[nH]1 (racemic)	108%
COc1ccc(S(=O)(=O)N(CCO)c2ccccc2CN(C)CC=Cc2ccc(Cl)cc2)cc1	105%
Cc1ccc(NC2=CC(=O)c3sc(C)nc3C2=O)cc1	98.3%
O=C1Cc2c([nH]c3ccc([N+](=O)[O-])cc23)-c2ccccc2N1	95.4%
O=C1NC(=O)C(c2c[nH]c3ccccc23)=C1c1c[nH]c2ccccc12	108%
Nc1nc(Nc2ccc(S(N)(=O)=O)cc2)nn1C(=O)c1c(F)cccc1F	95.8%
CC(=O)c1ccc(N2CCOCC2)cc1O	98.6%
Nc1nccc(-c2c(-c3ccc(F)cc3)ncn2C2CCNCC2)n1	105%
NC(=O)c1ccc(N(C(N)=O)c2c(F)cccc2F)nc1-c1ccc(F)cc1F	92.9%

Block 3 — cell line: HaCaT; concentration: 100 µM; time: 60 h
Compound	viability [%]
COc1cc2ccc(=O)oc2cc1OC	97.8
O=C(O)C[C@H](O)C[C@H](O)/C=C/c1c(C2CC2)nc2ccccc2c1-c1ccc(F)cc1	19.1
NCCc1c[nH]cn1	135
COc1cc(C[C@H]2C(=O)OC[C@@H]2Cc2ccc(OC)c(OC)c2)ccc1O	121
CCCCCCCCCCCCCCCCCCCCCCO	136
CNC1CCCN(c2c(F)cc3c(=O)c(C(=O)O)cn(C4CC4)c3c2OC)C1 (stereo not shown)	129
O=c1ccc2cc3ccoc3cc2o1	111
C#C[C@]1(O)CC[C@H]2[C@@H]3CCc4cc(O)ccc4[C@H]3CC[C@@]21C	15.8

Block 4 — read-out: acetyl-histone H4 peptide binding; method: AlphaScreen displacement; concentration: 50 µM
Target: Bromodomain-containing protein 4, BD1 (BRD4, Homo sapiens, UniProt O60885)
Compound	inhibition [%]
O=C1NCCCc2c1oc1ccc(O)cc21	12.1
O=C1NC(=O)C(=Cc2ccc(-c3cc(Cl)ccc3Cl)o2)S1	2.45
COc1cc2ncnc(Nc3cccc(Br)c3)c2cc1OC	26.4
CC(=O)Nc1cccc(NC(=O)CSc2ccc3nnc(-c4cccc(F)c4)n3n2)c1	18.2
COc1ccc(-c2nnc3ccc(SCC(=O)N4CCC(C)CC4)nn23)cc1OC	6.8
COC(=O)C(C)Sc1ccc2nnc(-c3cccc(F)c3)n2n1 (stereo not shown)	14.1
COc1ccc(-c2nnc3ccc(SCC(=O)Nc4ccccc4F)nn23)cc1OC	3.6
CCOc1cc2ncnc(Nc3cccc(Br)c3)c2cc1OCC	31.6
COc1cc(C=C2SC(=O)NC2=O)cc(OC)c1O	-1.65
COc1ccc(-c2nnc3ccc(SCC(=O)O)nn23)cc1OC	9.4
O=C(NCc1ccc(F)cc1)c1n[nH]c2ccccc12	1.25

Single results of other studies — read-out: binding
Compound	target	test	setting	endpoint	value
Cc1cc(Nc2nccc(C)n2)cc(-c2cnc([C@@]3(O)CC[C@H](C(=O)O)C(C)(C)C3)s2)c1	PIK3CA (Homo sapiens, UniProt P42336)	competition with immobilised ligand	1 µM	remaining binding	14.7%
Cn1c(-c2csc(C3CCN(Cc4nc5ncccc5[nH]4)CC3)n2)nc2ccccc21	HTR2B (Homo sapiens, UniProt P41595)			Ki	1580 nM

A few entries again (block 2):
Structure (SMILES)	remaining activity
O=S(=O)(NCCNC/C=C/c1ccc(Br)cc1)c1cccc2cnccc12	92.7%
COc1ccc(S(=O)(=O)N(CCO)c2ccccc2CN(C)CC=Cc2ccc(Cl)cc2)cc1	105%
Nc1nc(Nc2ccc(S(N)(=O)=O)cc2)nn1C(=O)c1c(F)cccc1F	95.8%
Oc1ccc(Nc2nc(-c3ccc(Cl)cc3)cs2)cc1	77.1%
O=C1NC(=O)C(c2c[nH]c3ccccc23)=C1c1c[nH]c2ccccc12	108%
Fc1ccc(-c2nc3n(c2-c2ccncc2)CCS3)cc1	71.4%
CSc1nc(-c2ccnc(N[C@@H](C)c3ccccc3)c2)c(-c2ccc(F)cc2)[nH]1 (racemic)	108%
NC(=O)c1ccc(N(C(N)=O)c2c(F)cccc2F)nc1-c1ccc(F)cc1F	92.9%
